Experimental data pooled from the literature.
Numbers after ± are the reported error.
APP: Amyloid-beta precursor protein (APP, Homo sapiens, UniProt P05067)
Chain of UniProt P05067 (whole entry, looked up): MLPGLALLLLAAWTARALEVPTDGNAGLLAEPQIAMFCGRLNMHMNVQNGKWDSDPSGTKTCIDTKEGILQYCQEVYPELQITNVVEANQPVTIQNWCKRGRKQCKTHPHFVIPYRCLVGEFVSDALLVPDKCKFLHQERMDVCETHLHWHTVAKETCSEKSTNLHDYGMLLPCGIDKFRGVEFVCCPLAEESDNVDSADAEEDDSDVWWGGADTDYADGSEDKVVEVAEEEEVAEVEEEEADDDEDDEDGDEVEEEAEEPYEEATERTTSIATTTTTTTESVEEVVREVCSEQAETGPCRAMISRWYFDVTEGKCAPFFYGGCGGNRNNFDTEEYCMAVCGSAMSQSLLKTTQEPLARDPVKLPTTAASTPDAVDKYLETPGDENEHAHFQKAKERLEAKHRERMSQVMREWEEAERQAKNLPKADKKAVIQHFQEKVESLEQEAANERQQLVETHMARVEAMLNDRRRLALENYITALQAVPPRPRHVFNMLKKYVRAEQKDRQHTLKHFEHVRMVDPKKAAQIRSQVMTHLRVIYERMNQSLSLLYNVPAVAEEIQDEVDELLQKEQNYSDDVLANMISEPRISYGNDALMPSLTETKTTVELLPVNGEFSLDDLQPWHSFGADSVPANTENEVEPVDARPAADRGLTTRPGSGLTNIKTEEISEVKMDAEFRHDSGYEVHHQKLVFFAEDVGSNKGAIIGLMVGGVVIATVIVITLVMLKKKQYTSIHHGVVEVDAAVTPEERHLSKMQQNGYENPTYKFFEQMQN
APP Aβ42 fibrils: Amyloid-beta precursor protein, Aβ42 fibrils (APP, Homo sapiens, UniProt P05067)
APP Aβ40 fibrils: Amyloid-beta precursor protein, Aβ40 fibrils (APP, Homo sapiens, UniProt P05067)

| SMILES | target | test | system | conditions | quantity | value |
| --- | --- | --- | --- | --- | --- | --- |
| COC(=O)CN1CCN(Cc2cc(-c3nc4ccccc4s3)cc(OC)c2O)CCN(Cc2cc(-c3nc4ccccc4s3)cc(OC)c2O)CC1 | APP | ligand displacement, fluorescence | – | – | Ki | 0.86 µM |
| CC(C)(C)N1Cc2cccc(n2)CN(C(C)(C)C)Cc2cccc(n2)C1.[Cu+2] | APP Aβ42 fibrils | amyloid-beta 42 binding, thioflavin T competition | – | pH 7.4 | Ki | 7.78 ± 2.15 µM |
| COc1cc(C=Cc2cc(-[c-]3cccc3)n(C(=O)[c-]3cccc3)n2)ccc1O.[Fe+2].[Fe+2].c1cc[cH-]c1.c1cc[cH-]c1 | APP Aβ40 fibrils | amyloid fibril disassembly, thioflavin T fluorescence | – | 24 h, 37 °C, together with: 25 µM amyloid-beta | DC50 | 70 ± 7 µM |
| [Cu+2].c1cc2nc(c1)CSCc1cc(-c3nc4ccccc4s3)cc(n1)CSC2 | APP Aβ42 fibrils | amyloid-beta 42 binding, thioflavin T competition | – | pH 7.4 | Ki | 0.53 ± 0.06 µM |
| COc1cc(-c2nc3ccccc3s2)cc(CN2CCN(CC(=O)O)CCN(Cc3cc(-c4nc5ccccc5s4)cc(OC)c3O)CC2)c1O | APP | ligand displacement, fluorescence | – | – | Ki | 0.55 µM |
| Clc1ccc2c(c1)N(CCCN1CCN(CCn3cc(CN4CCCNCCN(Cc5cn(CCN6CCN(CCCN7c8ccccc8Sc8ccc(Cl)cc87)CC6)nn5)CCCNCC4)nn3)CC1)c1ccccc1S2.[Cu+2].[O-][Cl+3]([O-])([O-])[O-].[O-][Cl+3]([O-])([O-])[O-] | APP | binding, NMR | – | – | Kd | 3.7 µM |
| COc1cc(/C=C/c2cc(-[c-]3cccc3)n(C(=O)c3ccccc3)n2)ccc1O.[Fe+2].c1cc[cH-]c1 | APP | amyloid aggregation, inhibitor, fluorescence | – | pH 6.9 | IC50 | 23.5 µM |
| CCCC[C@@H]1NC(=O)[C@@H](CC(C)C)NC(=O)[C@H](CCCCN)NC(=O)[C@@H](CO)NC(=O)[C@H](Cc2c[nH]cn2)NC(=O)[C@@H](Cc2c[nH]c3ccccc23)NC1=O | Amyloid-beta precursor protein, Aβ42 (APP, Homo sapiens, UniProt P05067) | binding, surface plasmon resonance | PBS-T, 1% DMSO | 25 °C | Kd | 4 µM |
| COc1cc(/C=C/c2n[nH]c(-[c-]3cccc3)c2C)ccc1O.[Fe+2].c1cc[cH-]c1 | APP Aβ40 fibrils | amyloid fibril disassembly, thioflavin T fluorescence | – | 24 h, 37 °C, together with: 25 µM amyloid-beta | DC50 | 10.8 ± 0.7 µM |
| COc1cc(-c2nc3ccccc3s2)cc(CN2CCN(C)CCN(C)CC2)c1O | APP Aβ40 fibrils | amyloid-β fibril binding, direct fluorescence | – | Aβ 5 µM | Kd | 0.58 µM |

For quick reference, copied from above:
| SMILES | target | test | system | conditions | quantity | value |
| --- | --- | --- | --- | --- | --- | --- |
| COc1cc(-c2nc3ccccc3s2)cc(CN2CCN(CC(=O)O)CCN(Cc3cc(-c4nc5ccccc5s4)cc(OC)c3O)CC2)c1O | APP | ligand displacement, fluorescence | – | – | Ki | 0.55 µM |
| Clc1ccc2c(c1)N(CCCN1CCN(CCn3cc(CN4CCCNCCN(Cc5cn(CCN6CCN(CCCN7c8ccccc8Sc8ccc(Cl)cc87)CC6)nn5)CCCNCC4)nn3)CC1)c1ccccc1S2.[Cu+2].[O-][Cl+3]([O-])([O-])[O-].[O-][Cl+3]([O-])([O-])[O-] | APP | binding, NMR | – | – | Kd | 3.7 µM |
